Assay results of several laboratories.
Parts stem from different laboratories: compare values within a part only. Positions count from the first letter of the parent shown.

Block 1
Target: Sal-like protein 4, full length isoform B (SALL4, Homo sapiens, UniProt Q9UJQ4-2, residues 1-616)
Technique: universal PBM
Form: double-stranded DNA, one strand shown
Sample: in vitro
Tested at: not given
Setting: 8-mer, flanks averaged, mean of replicates
Direction: higher = stronger binding
Endpoint: E-score
AAGGGACA: -0.0887
ATCCGAAG: -0.0605
CCAGGATC: -0.232
ACAAGCCA: -0.0921
GCTAAGTA: 0.071
ATCGGCCC: -0.226
CGTGAGAC: -0.0411
GGGTATCA: 0.05
ACACTCCC: -0.157
CGTCAATA: 0.187
GGTACTTA: 0.0804
GATCACAA: 0.137
AGAACTAA: 0.0807
GCTCTCTA: -0.0824
TATTACGA: 0.303
ACGGTCTA: 0.0306

Block 2
Target: FOSB, bZIP domain (human)
Technique: DHFR protein complementation
Sample: yeast
Setting: single substitutions, most at no-binding floor
Reference: wild-type JUN-FOS pair
Direction: higher = stronger binding
Endpoint: binding fitness
Starting sequence: JUN, bZIP domain (human); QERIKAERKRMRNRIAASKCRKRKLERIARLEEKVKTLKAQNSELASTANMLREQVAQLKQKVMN; partner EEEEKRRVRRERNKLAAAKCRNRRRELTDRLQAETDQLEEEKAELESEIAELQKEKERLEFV
K36M: 0.0365 natural log
A49G: -0.907 natural log
T48W: -0.258 natural log
E54W: -0.422 natural log
A29R: -0.118 natural log
A49W: -0.642 natural log
R30N: -0.115 natural log
Q55G: -0.722 natural log
E33A: -0.165 natural log
K34H: 0.0519 natural log
R53A: -0.414 natural log
L38G: -1.02 natural log
R30S: 0.0156 natural log
E33C: -0.275 natural log
M51G: -0.189 natural log
N42V: 0.129 natural log
N42G: -1.14 natural log
T48A: -0.0977 natural log
T37L: 0.0241 natural log
K36V: -0.121 natural log
V35C: -0.347 natural log
I28V: -0.117 natural log
L38R: -1.16 natural log
A46I: -0.126 natural log
L38V: -0.985 natural log

Block 3
Target: CCNB3, cyclin fold, Cln2 fusion (human)
Technique: yeast growth competition, sequencing
Sample: yeast
Setting: weak parent motif
Reference: not given
Direction: higher = stronger binding
Endpoint: normalised enrichment score
Starting sequence: GMNC docking peptide (human); KNAKRNLSSEFAN
N6K: 0.105
R5N: 0.0599
N6T: 0.318
K4M: -0.134
S9I: 0.207
L7T: 0.375
A12T: 0.287
E10G: 0.599
R5M: 0.222
E10S: 0.0789
A3I: 0.474
F11E: 0.209
K4T: -0.0102
K4A: 0.356
N6M: 0.128
F11C: 0.209
A12M: 0.0984
A3V: 0.852
N2K: 0.548
S8D: 0.144
L7W: -0.0806
A3C: 0.596
A12N: 0.257
N2C: 0.251
R5C: 0.0439

Block 4
Target: Histone acetyltransferase KAT6A, both winged helices, GST fusion (KAT6A, Homo sapiens, UniProt Q92794, residues 1-181)
Technique: protein binding microarray
Form: double-stranded DNA, one strand shown
Sample: in vitro
Tested at: not given
Setting: 8-mer, flanks averaged, mean of 2 arrays, mostly near background
Reference: not given
Direction: higher = stronger binding
Endpoint: E-score
Residues (chain): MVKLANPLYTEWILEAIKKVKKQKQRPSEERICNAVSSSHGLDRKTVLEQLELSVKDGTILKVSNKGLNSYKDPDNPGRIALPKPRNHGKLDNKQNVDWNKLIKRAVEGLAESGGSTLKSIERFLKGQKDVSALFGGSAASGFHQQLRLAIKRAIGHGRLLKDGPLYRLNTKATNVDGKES
AAGACATA: -0.00421
CTAGATAG: -0.108
AGGTAAGC: -0.144
GCCCTCCA: -0.0947
AATGCCAA: -0.225
ATTGTAGG: -0.163
AGCAGATA: -0.12
CAACACTC: 0.00932
ACCTTTTG: -0.142
AACATATG: -0.0611
AAATGGCC: 0.0992
GAAGAATC: -0.0635
GCCGATGA: 0.181
GCTCCTAC: -0.0919
ACAATACT: -0.0948
CGCTCAGC: 0.268
CCATTGCA: -0.104
ACACTTCG: -0.157
AACACTGA: -0.0778

Block 5
Target: Interferon regulatory factor 5, full length, phosphomimetic (IRF5, Homo sapiens, UniProt Q13568-2, residues 1-514, S451D/S453D/S456D/S462D)
Technique: protein-binding microarray
Form: double-stranded DNA, one strand shown
Sample: in vitro
Tested at: 940 nM top
Setting: 60-bp whole probe
With: salmon DNA 0.4 mg/ml
Reference: random background probes
Direction: higher = stronger binding
Endpoint: fitted relative affinity
Constant ends, left off below: GCCTAGCAC … GTCTTGATTCGCTTGACGCTGCTG
TCAGATATCTTTTTCCTACTGTGCTAG: 0.589 z-score
GACGGTTTCCTTTGCCTGACGTGCTAG: 1.45 z-score
TTAGATTTCAGTATCGATCAGTGCTAG: 5.68 z-score
TTAGGTTTCTTTCTCCTTTAGTGCTAG: 3.6 z-score
CCTATCTTATGATATATATAAGTGCTA: 0.829 z-score
GACGGTATCGGGTTTCGGTACGTGCTA: 7.22 z-score
TTAGGTATCGGAACTGGGTTAGTGCTA: 4.63 z-score
GACGTTTTCAGTATCGAGACGTGCTAG: 3.01 z-score
GACGACTCCAGTTTCGAGACGTGCTAG: 4.29 z-score
GACGGTCTCGGGCTGGGGACGTGCTAG: 1.06 z-score
GACGGTATCGACACTGGTGACGTGCTA: 3.28 z-score
TCAGTTTTCCTTATTGCACTGTGCTAG: 1.72 z-score
TTAGGCTTCGGGTTTCGGTTAGTGCTA: 5.77 z-score
GACGGACTTGACTTTCGGGACGTGCTA: 0.473 z-score
GACGATATCGGAACTGGAGACGTGCTA: -0.0205 z-score
TTGGAACTGAGTTTCGATTAGTGCTAG: 7.5 z-score
CATCATTGCCTGTTTTTCCCCGTGCTA: 1.02 z-score
GACGGTCTCCTACTCCTGACGTGCTAG: 0.338 z-score
TTAGGTATCGACTATCGGTTGGTGCTA: 6.63 z-score

Block 6
Target: ABI1, truncated, D143A, DHFR fusion (Arabidopsis thaliana)
Technique: DHFR PCA, deep sequencing
Sample: yeast
Setting: methotrexate growth selection, single substitutions
With: (+)-ABA 0.0091 µM
Reference: wild-type fitted maximum
Direction: higher = stronger binding
Endpoint: relative binding score
Starting sequence: PYL1, truncated, DHFR fusion (Arabidopsis thaliana); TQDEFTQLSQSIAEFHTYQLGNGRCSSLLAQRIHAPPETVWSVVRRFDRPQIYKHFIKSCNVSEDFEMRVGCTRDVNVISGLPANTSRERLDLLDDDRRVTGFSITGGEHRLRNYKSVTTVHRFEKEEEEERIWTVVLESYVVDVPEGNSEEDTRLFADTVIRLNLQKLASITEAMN
F5E: 3.16%
T1D: 22.4%
A158S: 1.12%
L8N: 2.21%
P50C: 0.539%
V143L: -1.59%
E151C: 18.8%
T17R: 3.8%
I79A: 18.8%
T6G: 25.5%
D95F: -2.61%
I57E: -0.967%
H110A: 39%
V121L: 0.546%
F103P: -4.4%
Q7A: 35.6%
V44G: -1.28%
N114W: -2.85%
